Measurements from different studies.
Lines come from different studies, so protocols differ. Values joined by “and” are separate records of one study, mostly repeats; a detail may differ. ± marks the error that the study gave.

| Molecule | tested on | assay | system | setting | how to read | quantity | value |
| --- | --- | --- | --- | --- | --- | --- | --- |
| human desmoplakin |  | co-immunoprecipitation | human RBC cytosol | no crosslinker, unit not given, added: Band 3 peptide 1-56 bait | relative to: negative control | co-IP enrichment | 0 |
| GSGAGKETYY | human MAGI1-3/6 PDZ construct (MBP fusion) | automated holdup | peptide, crude extract | concentration not given, corrected by standard peak, unit not given | relative to: biotin control resin, higher = stronger binding | binding intensity | 0.00901 |
| hemoglobin alpha |  | co-immunoprecipitation | human RBC cytosol | unit not given, added: Band 3 peptide 1-56 bait | relative to: negative control | co-IP enrichment | 0.467 |
| difelikefalin |  |  | Japanese haemodialysis patients with pruritus | intravenous, 0.5 µg/kg, 8 weeks |  | PGIC much improved | 28.8% |
| cotadutide |  |  | ob/ob mouse, AMLN diet NASH model | dose not given, terminal |  | plasma cholesterol | 305 ± 32 mg/dL |
| human LDL receptor |  | co-immunoprecipitation | human RBC cytosol | DMTMM crosslinker, unit not given, added: Band 3 peptide 1-56 bait | relative to: negative control | co-IP enrichment | 85.1 |
| calcium |  | ion current, two-electrode voltage clamp | Xenopus oocytes | 10 mM, 80 mV, added: niflumic acid present |  | desensitization time constant | 12.6 s and 7.8 s and 19.6 s and 6.67 s |
| NPDALPETLV | human MAGI1-3/6 PDZ construct (MBP fusion) | automated holdup | peptide, crude extract | concentration not given, uncorrected, unit not given | relative to: biotin control resin, higher = stronger binding | binding intensity | 0.716 |
| maraviroc |  | ELISA, refers to: sRAGE | mouse, HIV-infected, serum | intraperitoneal, 120 mg/kg twice daily, week 3 post infection |  | serum level | 91 ± 7.34 ng/mL |
| somatropin |  |  | children with severe GH deficiency, short stature | dose not given, GHSR mutation patients |  | height gain in first year of therapy | 7 cm |
| semaglutide |  |  | DIO male Wistar rats | dose not given, 2 weeks |  | fasting plasma insulin | 10.1 ± 1.5 ng/mL |

Repeated from above:
| Molecule | tested on | assay | system | setting | how to read | quantity | value |
| --- | --- | --- | --- | --- | --- | --- | --- |
| difelikefalin |  |  | Japanese haemodialysis patients with pruritus | intravenous, 0.5 µg/kg, 8 weeks |  | PGIC much improved | 28.8% |
| cotadutide |  |  | ob/ob mouse, AMLN diet NASH model | dose not given, terminal |  | plasma cholesterol | 305 ± 32 mg/dL |
